Measurements pooled from the literature.
Each line is one published result; not all experiments were run side by side. Values joined by “and” are separate records of one study, mostly repeats; a detail may differ. Numbers after ± are the reported error. ≈ marks a conversion by molar mass, not a printed value.

Compound | assay | test system | conditions | how to read | endpoint | result
O=C(O)c1cccc(C(=O)O)c1 |  | betaine/ethylene glycol DES-water | DES mass fraction 0.90 |  | apparent dissolution enthalpy | 10.5 kcal/mol
Cn1c(=O)oc2ccc(-c3ccc(C[C@@H](C#N)NC(=O)[C@@H]4CNCCCO4)cc3)cc21 |  | healthy male subjects | oral, dose not given, repeated dosing |  | steady-state plasma concentration | 1000 nM
Cc1ccc([C@@H]2O[C@H](CO)[C@@H](O)[C@H](O)[C@H]2O)cc1Cc1ccc(-c2ccc(F)cc2)s1 |  | Japanese type 2 diabetes patients | 400 mg, day 17, 24 h urine collection | reference: baseline | urinary sodium excretion change | 3.68 mEq
CCOc1c([C@H](C)n2nc(C)c3c(N)ncnc32)cc(Cl)c(F)c1[C@@H]1CNC(=O)C1 |  | rat plasma | 1600 ng/mL, three freeze-thaw cycles | reference: nominal concentration | stability relative error | -8.9%
CNCc1ccc(-c2[nH]c3cc(F)cc4c3c2CCNC4=O)cc1 |  | human patients | oral, 360 mg twice daily, all grades |  | diarrhoea incidence | 12.5%
C=CCN1CC(=O)N2[C@@H](Cc3ccc(O)cc3F)C(=O)N(Cc3cccc(N4CC(N5CCN(CC)CC5)C4)n3)C[C@@H]2N1C(=O)NCc1ccccc1 |  | advanced solid tumour patients | oral, 160 mg twice daily, any grade, dose-escalation |  | treatment-related diarrhoea | 50%
O=C(O)CCC(=O)O.[2H]C([2H])([2H])Oc1cc(C)c2[nH]ccc2c1CN1CC[C@@H](C2CC2)C[C@H]1c1ccc(C(=O)O)cc1 | multiple ascending dose | healthy Chinese subjects | 200 mg once daily |  | subjects with sinus bradycardia TEAE | 12.5%
O=C1NCCc2nc(OCc3cccc(F)c3)ccc21 | item: Salivation | Sprague-Dawley rat male | oral, 100 mg/kg, 0 min | reference: baseline, direction not given | Irwin test score | 0
Cn1cc(-c2cn3nccc3c(-c3cnn([C@]4(CC#N)C[C@@H](C#N)C4)c3)n2)cn1 |  | healthy humans fed, plasma | 400 mg once daily, day 10, geometric mean |  | average concentration | 226 ng/mL
CCCCCCCCCCCCCCCC(=O)N[C@@H](CCC(=O)NCCCC[C@@H]1NC(=O)[C@H]([C@@H](C)CC)NC(=O)[C@@H](NC(=O)[C@@H]2CCCN2C(=O)[C@H](Cc2ccccc2)NC(=O)[C@H](Cc2c[nH]cn2)NC(=O)[C@@H](NC(=O)[C@H](CC(=O)O)NC(=O)CC(C)C)[C@@H](C)O)CSSC[C@@H](C(=O)N[C@@H](CCCCN)C(N)=O)NC(=O)CNC(=O)[C@H](CCCCN)NC(=O)[C@H](CO)NC(=O)[C@H](CCCNC(=N)N)NC(=O)[C@@H]2CCCN2C(=O)[C@H](CCC(=O)O)NC(=O)[C@H](Cc2ccccc2)NC1=O)C(=O)O |  | healthy volunteers, plasma | subcutaneous, 10 mg | reference: parent plus metabolites | AUC(0-inf) share of total | 65.5 ± 3.96%
NC(CO)(CO)CCc1ccc(Sc2cccc(OCc3ccccc3)c2)cc1Cl |  | human, supine | oral, 3 mg, 0 to 24 h, with: cyclosporin 100 mg |  | pulse rate AUEC, mean | 1310 h×bpm
CCc1cc(C(=O)NC)c2nccc(N3CCc4c(cc(Cn5ccnc5)cc4-c4cn(C)nc4C(F)(F)F)C3=O)c2c1 |  | Sprague Dawley rats | oral, 100 mg/kg once daily, 7 days |  | mean platelet volume | 8.03 ± 0.13 fL
O=C1CC[C@H](N2Cc3cc(N4CCN(CC5CCN(c6ccc([C@@H]7c8ccc(O)cc8CC[C@@H]7c7ccccc7)cc6)CC5)CC4)ccc3C2=O)C(=O)N1 |  | fasted Sprague-Dawley rat, plasma | oral, 20 mg/kg | reference: male rats | half-life excess female over male | 83.2%
C[C@H](CCC(=O)O)[C@H]1CC[C@H]2[C@@H]3[C@H](O)C[C@@H]4C[C@H](O)CC[C@]4(C)[C@H]3C[C@H](O)[C@]12C |  | human, plasma | endogenous baseline diurnal | reference: daily mean concentration | relative peak deviation | 149 ± 45%
Cc1cccc(CNC(=O)c2cn(CCNC(=O)c3ccccc3Sc3c([N+](=O)[O-])ncn3C)c3cc4c(cc3c2=O)OCO4)n1 |  | Beagle dog, whole blood | 1 µM, 0.5 h |  | remaining compound | 93.9%
CC(C)[C@H](C(=O)Nc1ccc(C(=O)NO)cc1)c1ccccc1 |  | whole blood | 100 ng/mL, 3 h, 4 °C, stability on ice |  | measured concentration | 109 ng/mL
CNC(=O)c1ccccc1Nc1cc(Nc2ccc(N3CCOCC3)cc2OC)ncc1C(F)(F)F |  | oleic acid | 24 h, 25 °C |  | solubility | 4200 µg/mL (≈ 8.37 mM)
C[C@@H](Oc1ccc(S(C)(=O)=O)cc1C(=O)N1C[C@@H]2C[C@]2(c2cc(C(F)(F)F)on2)C1)C(F)(F)F | item: AUC0–tz | healthy human volunteers | oral, 10 mg | reference: fed over fasted | fed over fasted ratio | 115%
C[C@H]1CNC(=O)c2cnn3ccc(nc23)N[C@H](C)c2cc(F)ccc2O1 |  | human, plasma | recommended dose, total |  | average steady-state concentration | 846 nmol/L
CCNC(=O)[C@@H]1CCCN1C(=O)[C@H](CCCNC(=N)N)NC(=O)[C@H](CC(C)C)NC(=O)[C@@H](CC(C)C)NC(=O)[C@H](Cc1ccc(O)cc1)NC(=O)[C@H](CO)NC(=O)[C@H](Cc1c[nH]c2ccccc12)NC(=O)[C@H](Cc1c[nH]cn1)NC(=O)[C@@H]1CCC(=O)N1 |  | healthy premenopausal women, plasma | intramuscular, 3.75 mg monthly depot, day 29, 696 h |  | steady-state concentration | 1.7 ± 1.2 ng/mL

Compound | assay | test system | conditions | how to read | endpoint | result
O=C(OC(C(F)(F)F)C(F)(F)F)N1CCN(Cc2cccc(Oc3ccccc3)c2)CC1 | PET blocking study | rhesus monkey, brain OCC | 0.3 mg/kg, compound pretreatment, with: [18F]T-401 tracer |  | Ktrans | 0.0078 min⁻¹
NCCONC(=O)[C@@H]1CC[C@@H]2CN1C(=O)N2OS(=O)(=O)O |  | healthy Chinese male subjects | intravenous, 2 g |  | number of Mild TRAE events | 1
O=C(c1cccnc1-c1ccncc1)N1CCC(O)(Cc2ccccc2)CC1 |  | healthy Japanese adults, plasma | oral, 600 mg single dose |  | elimination rate constant | 4.44e-05 s⁻¹
Oc1ccc(/C=C/c2cc(O)cc(O)c2)cc1 |  | rat, azoxymethane-injected, blood at sacrifice | 100 mg/kg |  | glycated albumin | 1.9% and 1.8% and 1.7%
O=C(Cc1ccc2ccccc2c1)Nc1cc(C2CCC2)[nH]n1 |  | extracted mouse plasma | 375 ng/mL, 24 h, 4 °C, autosampler stability |  | measured mean concentration | 382 ± 61.4 ng/mL
CC(C)(C(=O)N1CCOc2c(C#N)cncc2C1)C(F)F | item: blood and lymphatic disorders | human, both sexes | oral, 20 mg once daily, 14 days, multiple ascending dose |  | subjects with TEAE | 0%
COc1ccc2c(=O)n(C)c(-c3ccccc3)nc2c1 |  | Sprague-Dawley rat, male, abdominal fat | oral, 30 mg/kg, 2 h | reference: abdominal fat over plasma | tissue/plasma ratio | 22.8
COc1cc(C(=O)N2CCC3(CC2)CC(=O)c2c(cnn2C(C)C)C3)cc(-c2ccc(C(=O)O)cc2)n1 |  | human, fasting serum | 100 mg once daily, day 13, adjusted geometric mean |  | total cholesterol change from baseline | -10.1%
CC(C)Oc1c(NC(=O)c2ccc(NC(=O)[C@H](CC(N)=O)NC(=O)c3ccc(/N=N/c4ccccc4)cc3)cc2)ccc(C(=O)N/N=C/c2ccc(C(=O)O)s2)c1O | absorbance | DMSO | 30 °C, PSS to ground state relaxation |  | thermal half-life | 22.4 h
Cc1nc(-c2ccc(OCC(C)C)c(C#N)c2)sc1C(=O)O |  | KM mouse, chronic hyperuricaemia model | dose not given, day 18 |  | body weight | 32.8 g and 33 g and 37.2 g and 38 g and 41.2 g and 34.6 g
O=C(O)c1cc(O)c(O)c(O)c1 | LC-MS/MS | male Ross broilers, serum | oral, 0.49 mg/kg BW |  | elimination rate constant | 7.78e-05 ± 6.39e-05 s⁻¹
CC(C)=CC[C@@H](O)C1=CC(=O)c2c(O)ccc(O)c2C1=O |  | plasma | 500 ng/mL, 4 h, room temperature, stability |  | measured concentration | 486 ± 10.6 ng/mL
CN(C(=O)n1cnc(-c2cccnc2)c1)C1CCCCC1 |  | Wistar rat, hippocampus | oral, 10 mg/kg of BIA 10-2474, 4 h, single dose |  | concentration | 40.3 ± 5.7 ng/g
CCONC(=O)N1CCC[C@H](C(=O)NCc2nc(-c3ccc(C#N)cc3)cs2)C1 |  | Sprague-Dawley rat, male, urine | intravenous, 1 mg/kg, 24 h | reference: dose | urinary excretion | 1.9%
COc1ncc(-c2nc3c(n2C(C)C)[C@H](c2ccc(Cl)cc2)N(c2cc(Cl)cn(C)c2=O)C3=O)c(OC)n1 |  | human patients, plasma | oral, 30 mg, cycle 1 day 1, low-dose |  | geometric mean Cmax | 177 ng/mL
N#Cc1ccc2c(c1)[C@H]1CCCN(C(=O)c3ccc4[nH]cnc4c3)[C@H]1C2 |  | human males | 20 mg, day 7 |  | SHBG level | 36.3 nmol/L
O=[N+]([O-])c1cn2c(n1)OC[C@@H](OCc1ccc(N3CCOCC3)nc1)C2 |  | aqueous buffer | pH 7.4 |  | aqueous solubility | 25.8 µg/mL (≈ 0.0714 mM)
O=C(Nc1nc2cccc(-c3ccc(CN4CCS(=O)(=O)CC4)cc3)n2n1)C1CC1 |  | rheumatoid arthritis patients | oral, 100 mg twice daily, 4 weeks, TEAE regardless of relatedness |  | patients with Erythema | 0%
O=C(Nc1cnccc1Cl)N1CCN(Cc2ccc3c(c2)OC(F)(F)O3)CC1 |  | young women, plasma | oral, 100 mg once daily, day 10, normalized to 10 mg |  | dose-normalized Cmax | 94.9 ng/mL
Cc1cc2sc(N)nc2c2cccnc12 |  | female BALB/c mice, plasma | intraperitoneal, 30 mg/kg |  | dose-normalised AUC(0-inf) | 1520 kg·ng·h/mL/mg

Some of these lines once more:
Compound | assay | test system | conditions | how to read | endpoint | result
CN(C(=O)n1cnc(-c2cccnc2)c1)C1CCCCC1 |  | Wistar rat, hippocampus | oral, 10 mg/kg of BIA 10-2474, 4 h, single dose |  | concentration | 40.3 ± 5.7 ng/g
CCONC(=O)N1CCC[C@H](C(=O)NCc2nc(-c3ccc(C#N)cc3)cs2)C1 |  | Sprague-Dawley rat, male, urine | intravenous, 1 mg/kg, 24 h | reference: dose | urinary excretion | 1.9%
COc1ncc(-c2nc3c(n2C(C)C)[C@H](c2ccc(Cl)cc2)N(c2cc(Cl)cn(C)c2=O)C3=O)c(OC)n1 |  | human patients, plasma | oral, 30 mg, cycle 1 day 1, low-dose |  | geometric mean Cmax | 177 ng/mL
N#Cc1ccc2c(c1)[C@H]1CCCN(C(=O)c3ccc4[nH]cnc4c3)[C@H]1C2 |  | human males | 20 mg, day 7 |  | SHBG level | 36.3 nmol/L
O=[N+]([O-])c1cn2c(n1)OC[C@@H](OCc1ccc(N3CCOCC3)nc1)C2 |  | aqueous buffer | pH 7.4 |  | aqueous solubility | 25.8 µg/mL (≈ 0.0714 mM)
